Experimental data collected from several papers.
A part holds a random share of what one study measured. Positions count from the first letter of the parent shown.
UniProt P20231, sequence (whole entry, looked up): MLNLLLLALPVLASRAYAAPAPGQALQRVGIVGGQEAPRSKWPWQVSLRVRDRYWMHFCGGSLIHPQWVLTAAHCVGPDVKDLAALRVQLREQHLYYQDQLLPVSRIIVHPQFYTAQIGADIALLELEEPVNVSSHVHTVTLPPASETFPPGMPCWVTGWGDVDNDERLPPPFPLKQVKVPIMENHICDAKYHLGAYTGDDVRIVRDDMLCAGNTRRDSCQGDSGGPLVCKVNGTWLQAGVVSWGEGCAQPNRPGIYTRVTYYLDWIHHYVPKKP

Set 1 — target: CCND1, cyclin fold, Cln2 fusion (human); method: yeast growth competition, sequencing; medium: yeast; notes: weak parent motif; reference: not given; reading: higher = stronger binding; starting sequence: viral docking peptide; TSVRRALFTGGSD
| Variant | normalised enrichment score |
| --- | --- |
| R4E | 0.199 |
| F8I | -0.242 |
| L7V | 0.0781 |
| V3C | 0.616 |
| L7R | 0.313 |
| G10P | 0.254 |
| R5Q | 0.188 |
| V3R | 0.31 |

Set 2 — read-out: peptide-MHC binding; molecule type: peptide; tested at: concentration not given
Target: HLA class I histocompatibility antigen, A alpha chain, allele A*80:01 (Homo sapiens, UniProt P04439)
| Sequence | binding |
| --- | --- |
| EFVSANLAM | inactive |
| MEDCPNEGV | inactive |
| MHYKLDEVL | inactive |
| FHRKKTDAL | inactive |
| NPAACSYMV | inactive |
| VLLISDPGL | inactive |
| NSNINVINY | inactive |
| LTDEQKNAV | inactive |

Single results of other studies — UBE2D2: UBE2D2 UBC core domain (UniProt P62837)
UniProt P62837, sequence (whole entry, looked up): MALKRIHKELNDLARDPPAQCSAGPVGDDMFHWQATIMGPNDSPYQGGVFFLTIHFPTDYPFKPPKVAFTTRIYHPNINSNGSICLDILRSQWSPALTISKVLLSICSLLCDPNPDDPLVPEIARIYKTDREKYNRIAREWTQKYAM
B1: TRIM35 RING domain (UniProt Q9UPQ4); chain PSRSFKEELLCAVCYDPFRDAVTLRCGHNFCRGCVSRCWEVQVSPTCPVCKDRASPADLRT
B2: TRIM52 RING domain (UniProt Q96A61); chain PMQTLQEEAVCAICLDYFKDPVSISCGHNFCRGCVTQLWSKEDEEDQNEEEDEWEEEEDEEAV
| Molecule | target | test | test system | conditions | scale | quantity | value |
| --- | --- | --- | --- | --- | --- | --- | --- |
| B1 (TRIM35 RING domain) | UBE2D2 | yeast two-hybrid | yeast | mostly zero background | reference: not given, higher = stronger interaction | lacZ reporter activity | 0 |
| CN(C)C(=O)COC(=O)Cc1ccc(OC(=O)c2ccc(NC(=N)N)cc2)cc1 | Tryptase beta-2 (TPSB2, Homo sapiens, UniProt P20231) |  |  |  |  | IC50 | < 0.508 nM |
| ANYISAHTKDCPKCNICIEKNGGCNHMQCSKCKHDFCWMCLGDWKTHGSE (ARIH2 RING domain (UniProt O95376)) | UBE2D2 | yeast two-hybrid | peptide, yeast | mostly zero background | reference: not given, higher = stronger interaction | lacZ reporter activity | 0 |
| LKQVSIRENCCSLCCDEVADTQLKPCGHSDLCMDCALQLETCPLCRKEIVSRIRQI (RSPRY1 RING domain (UniProt Q96DX4)) | UBE2D2 | yeast two-hybrid | yeast | mostly zero background | reference: not given, higher = stronger interaction | lacZ reporter activity | 0 |
| B2 (TRIM52 RING domain) | UBE2D2 | yeast two-hybrid | yeast | mostly zero background | reference: not given, higher = stronger interaction | lacZ reporter activity | 0 |
